Published values gathered from unrelated publications.
Several values in a cell are separate wells, animals, samples, runs or records. Numbers after ± are the reported error.

| Structure (SMILES) | test | test system | conditions | scale | quantity | value |
| --- | --- | --- | --- | --- | --- | --- |
| C[C@H]1O[C@@H](O[C@H]2CC[C@@]3(C)[C@@H](CC[C@]4(C)[C@@H]3C=C[C@]35OC[C@@]6(CCC(C)(C)C[C@H]63)[C@@H](O)C[C@]54C)[C@]2(C)CO)[C@H](O)[C@@H](O[C@@H]2O[C@H](CO)[C@@H](O)[C@H](O)[C@H]2O)[C@H]1O | Western blot, refers to: Deptor | chronic-plus-binge ethanol-fed mice, liver | dose not given, dose level -L, unit not given | baseline: β-actin | protein level | 0.35 and 0.883 and 0.399 |
| Cc1c(C)n(Cc2cccc(OC(C)(C)C(=O)O)c2)c2ccc(C(=O)N[C@@H](C)c3ccc(C(C)(C)C)cc3)cc12 |  | C57BL/6 mouse, diet-induced obesity, L4 vertebra | dose not given | baseline: control | bone volume change | 0% |
| CC1(C)CCC(CN2CCN(c3ccc(C(=O)NS(=O)(=O)c4ccc(NCC5CCOCC5)c([N+](=O)[O-])c4)c(Oc4cnc5[nH]ccc5c4)c3)CC2)=C(c2ccc(Cl)cc2)C1 | cell kill, PI exclusion flow cytometry | unclassified leukaemia cells, human | 24 h |  | EC50 | 20 nM |
| Cc1cnc(N2CC3(CCOCC3)C2)c(C(=O)Nc2ccc(C(=O)N3CCc4cc(C(=O)Nc5c(C)cccc5F)sc4-c4ccccc43)cc2)c1 |  | human, RSV infection, nasal wash | dose not given, ITT-IS population | baseline: placebo | inhibition of CXCL8 AUC | 34% |
| O=C([O-])CN1CCN(CC(=O)[O-])CCN([C@H](CO)[C@H](O)CO)CCN(CC(=O)[O-])CC1.[Gd+3] (racemic) |  | human plasma (lyophilized) | 37 °C, 3 T |  | longitudinal relaxivity (r1) | 5 ± 0.3 mM⁻¹ s⁻¹ |
| COc1ncnn2ccc(-c3cnc4nc(C)n(Cc5nnc([C@@H](C)F)o5)c4c3)c12 |  | relapsed or refractory AML, MDS | dose not given, splicing factor mutation-negative |  | best overall response CRi | 0% |
| O=C(O)CNC(=O)Cc1ccccc1 |  | ventricular cardiomyocytes, C57BL/6 mouse | dose not given, 0.032 s |  | sarcomere length | 1.72 µm |
| N#Cc1ccc2c(c1)[C@H]1CCCN(C(=O)c3ccc4[nH]cnc4c3)[C@H]1C2 | refers to: ACTH | human, Phase II trial | oral, 80 mg once daily, last treatment, HPA axis, mean |  | plasma level | 10.7 pmol/L |
| O=P(O)(O)C(Cl)(Cl)P(=O)(O)O | astrogliosis, immunostaining | Mus musculus, subarachnoid haemorrhage model, hippocampal fissure | dose not given, day 7 | baseline: total area | GFAP-positive area | 7.02% |
| Cn1cc(Nc2nc(N)nc(-c3cccc(-n4ccc5cc(C6CC6)cc(F)c5c4=O)c3CO)n2)cn1 | CD63 upregulation, anti-IgE-induced | human, multiple ascending dose, whole blood basophils ex vivo | 300 mg twice daily, day 14, 12 h |  | inhibition | 90.8% |
| O=C(OC(C(F)(F)F)C(F)(F)F)N1CCN(Cc2cccc(Oc3ccccc3)c2)CC1 | PET | rhesus monkey, frontal cortex | intravenous, 0.01 mg/kg, pretreatment blocking, with: [18F]T-401 |  | tracer distribution volume | 11.2 mL/cm3 |
| CSCCNc1nc(SCCC(F)(F)F)nc2c1ncn2[C@@H]1O[C@H](COP(=O)(O)OP(=O)(O)C(Cl)(Cl)P(=O)(O)O)[C@@H](O)[C@H]1O | platelet aggregation, light transmission aggregometry | human patients, platelet-rich plasma | dose not given, 15 min, inhibition threshold 90%, with: ADP 5 µM |  | patients with inhibition above threshold | 5% |
| COc1cc(O)c(CC=C(C)C)c(O)c1C(=O)/C=C/c1ccc(O)cc1 | glucose tolerance test | male Tac:SW conventional mice, high-fat diet | in diet, 60 mg/kg/day, 10 weeks, 60 min after glucose load |  | blood glucose | 298 mg/dL |
| Cc1n[nH]c2ccc(-c3cc(OC[C@@H](N)Cc4ccccc4)cnc3-c3ccoc3)cc12 | kinase binding, competitor, MIB/MS competition, refers to: RTK1 | Candida albicans cell lysate | 100 nM | baseline: DMSO | log2 fold change | 0.0613 |
| C[C@H]1C[C@H]2CSC(N)=N[C@@]2(c2nc(NC(=O)c3ccc(OC(F)F)cn3)cs2)CO1 | refers to: Aβ1-40 | healthy adults, plasma | 50 mg once daily, day 7 | baseline: placebo | percent change from baseline | -87.1% |
| C=CCn1c(=O)c2cnc(Nc3ccc(N4CCN(C)CC4)cc3)nc2n1-c1ccc2c(n1)[C@@](O)(CC)CC2 |  | MDA-MB-231 xenograft, BALB/c nude mice | oral, 80 mg/kg once daily x 28, day 41 |  | tumour volume difference | 611 ± 16.8 mm3 |
| N#Cc1ccn2c(-c3ccncc3)c(-c3ccc(F)cc3)nc2c1 | kinase binding, competitor, MIB/MS competition, refers to: KSP1 | Candida albicans cell lysate | 10 µM | baseline: DMSO | log2 fold change | -0.485 |
| CN(CCOc1ccc(CC2SC(=O)NC2=O)cc1)c1ccccn1 (stereo not drawn) | RNA-seq pathway analysis, refers to: inflammatory pathway genes | liver spheroids | concentration not given, 24 h and 10 d |  | gene expression | decreased |

A few entries again:
| Structure (SMILES) | test | test system | conditions | scale | quantity | value |
| --- | --- | --- | --- | --- | --- | --- |
| COc1cc(O)c(CC=C(C)C)c(O)c1C(=O)/C=C/c1ccc(O)cc1 | glucose tolerance test | male Tac:SW conventional mice, high-fat diet | in diet, 60 mg/kg/day, 10 weeks, 60 min after glucose load |  | blood glucose | 298 mg/dL |
| O=P(O)(O)C(Cl)(Cl)P(=O)(O)O | astrogliosis, immunostaining | Mus musculus, subarachnoid haemorrhage model, hippocampal fissure | dose not given, day 7 | baseline: total area | GFAP-positive area | 7.02% |
| CN(CCOc1ccc(CC2SC(=O)NC2=O)cc1)c1ccccn1 (stereo not drawn) | RNA-seq pathway analysis, refers to: inflammatory pathway genes | liver spheroids | concentration not given, 24 h and 10 d |  | gene expression | decreased |
